Measured values of several laboratories.
Compare with care: the assays were run in different laboratories. Numbers after ± are the reported error.
Cell line: human PBMC

| Structure (SMILES) | assay | conditions | endpoint | value |
| --- | --- | --- | --- | --- |
| c1ccc(-c2ccc(CNCCNCc3ccc(-c4ccccn4)cc3)cc2)nc1 | IL-1β release, inhibitor, ELISA | 16 h, LPS-stimulated | IC50 | 0.9 µg/mL |
| CC(C)(C(=O)O)C1(O)CCCCC1 | cell growth or viability | 72 h | IC50 | > 300 µM |
| O=C(N=P12CN3CN(CN(C3)C1)C2)c1cccc[c]1[Pd].O=C(N=P12CN3CN(CN(C3)C1)C2)c1cccc[c]1[Pd]([Br])[Br] | cytotoxicity, MTT | 24 h, 1% DMSO | IC50 | 209 ± 11 µM |
| CCN(CC)CCN1C(=O)c2ccc3c4cccc5cccc(c6ccc(c2c36)C1=O)c54 | cell growth or viability, SRB | 72 h | IC50 | 204 µM |
| CCOC(=O)C1NC(c2ccc[n+](C)c2)C23c4c5c6c7c8c9c(c%10c%11c2c2c4c4c%12c5c5c6c6c8c8c%13c9c9c%10c%10c%11c%11c2c2c4c4c%12c%12c5c5c6c8c6c8c%13c9c9c%10c%10c%11c2c2c4c4c%12c5c6c5c8c9c%10c2c45)C713 (centres unmarked) |  | 5 µM, 24 h | decrease in viability | 6.4% |
| CC(=O)C=C(C)[O][Pd][c]1ccccc1C(=O)N=P12CN3CN(CN(C3)C1)C2 | cytotoxicity, MTT | 24 h, 1% DMSO | IC50 | 118 ± 11 µM |
| CCCCOc1nc(N)c2[nH]c(=O)n(CCCN(CCCN3CCOCC3)Cc3cccc(CC(=O)OC)c3)c2n1 | IL-5 release | 7 d, together with: Der p 1 | IC50 | 0.0002 µM |
| O=C1c2ccc3c4cccc5c(N6CCNCC6)ccc(c6ccc(c2c36)C(=O)N1CCN1CCCCC1)c54 | cell growth or viability, SRB | 72 h | IC50 | 292 µM |
| CN1CCC(N[C@@H]2CCc3[nH]c4c(C(N)=O)ccc(-c5ccccc5Cl)c4c3C2)CC1 | cell growth or viability |  | IC50 | 0.00299 µM |
| O=C(O)C(CO)NCc1cc(Cl)c(OCc2cccc(-c3ccccc3)c2Br)cc1OCc1cccnc1 (centres unmarked) | IFN-γ release, PD-1/PD-L1 blocker, ELISA | together with: PHA + human PD-L1 protein | EC50 | ≥ 0.01 µM |
| Cc1[nH]nc2c1N=C(c1ccccc1Cl)c1cnc(N3CCOCC3)cc1N2 |  | concentration not given, 3 d, together with: rhM-CSF 100 ng/mL | macrophage differentiation | inhibited |
| CCCCOc1nc(N)c2[nH]c(=O)n(CCCN(CCCN3CCOCC3)Cc3cccc(CC(=O)O)c3)c2n1 | IL-5 release | 2 d, together with: PHA | IC50 | 3.16 µM |
| CCN(CC)CCN1C(=O)c2ccc3c4cccc5c(N6CCNCC6)ccc(c6ccc(c2c36)C1=O)c54 | cell growth or viability, SRB | 72 h | IC50 | 213 µM |
| C=CC(=O)Nc1cccc(Cn2ncc3cnc(Nc4cnn(CCOC)c4)nc32)c1 | Western blot | concentration not given, together with: IL-2 | STAT5 phosphorylation | inhibited |

A few entries again:
| Structure (SMILES) | assay | conditions | endpoint | value |
| --- | --- | --- | --- | --- |
| O=C(N=P12CN3CN(CN(C3)C1)C2)c1cccc[c]1[Pd].O=C(N=P12CN3CN(CN(C3)C1)C2)c1cccc[c]1[Pd]([Br])[Br] | cytotoxicity, MTT | 24 h, 1% DMSO | IC50 | 209 ± 11 µM |
| CCOC(=O)C1NC(c2ccc[n+](C)c2)C23c4c5c6c7c8c9c(c%10c%11c2c2c4c4c%12c5c5c6c6c8c8c%13c9c9c%10c%10c%11c%11c2c2c4c4c%12c%12c5c5c6c8c6c8c%13c9c9c%10c%10c%11c2c2c4c4c%12c5c6c5c8c9c%10c2c45)C713 (centres unmarked) |  | 5 µM, 24 h | decrease in viability | 6.4% |
